Results gathered from unrelated publications.
Each numbered part is a random draw from the data of one study; scales do not carry over between parts. Positions count from the first letter of the parent shown.
Chain of UniProt P09619 (whole entry, looked up): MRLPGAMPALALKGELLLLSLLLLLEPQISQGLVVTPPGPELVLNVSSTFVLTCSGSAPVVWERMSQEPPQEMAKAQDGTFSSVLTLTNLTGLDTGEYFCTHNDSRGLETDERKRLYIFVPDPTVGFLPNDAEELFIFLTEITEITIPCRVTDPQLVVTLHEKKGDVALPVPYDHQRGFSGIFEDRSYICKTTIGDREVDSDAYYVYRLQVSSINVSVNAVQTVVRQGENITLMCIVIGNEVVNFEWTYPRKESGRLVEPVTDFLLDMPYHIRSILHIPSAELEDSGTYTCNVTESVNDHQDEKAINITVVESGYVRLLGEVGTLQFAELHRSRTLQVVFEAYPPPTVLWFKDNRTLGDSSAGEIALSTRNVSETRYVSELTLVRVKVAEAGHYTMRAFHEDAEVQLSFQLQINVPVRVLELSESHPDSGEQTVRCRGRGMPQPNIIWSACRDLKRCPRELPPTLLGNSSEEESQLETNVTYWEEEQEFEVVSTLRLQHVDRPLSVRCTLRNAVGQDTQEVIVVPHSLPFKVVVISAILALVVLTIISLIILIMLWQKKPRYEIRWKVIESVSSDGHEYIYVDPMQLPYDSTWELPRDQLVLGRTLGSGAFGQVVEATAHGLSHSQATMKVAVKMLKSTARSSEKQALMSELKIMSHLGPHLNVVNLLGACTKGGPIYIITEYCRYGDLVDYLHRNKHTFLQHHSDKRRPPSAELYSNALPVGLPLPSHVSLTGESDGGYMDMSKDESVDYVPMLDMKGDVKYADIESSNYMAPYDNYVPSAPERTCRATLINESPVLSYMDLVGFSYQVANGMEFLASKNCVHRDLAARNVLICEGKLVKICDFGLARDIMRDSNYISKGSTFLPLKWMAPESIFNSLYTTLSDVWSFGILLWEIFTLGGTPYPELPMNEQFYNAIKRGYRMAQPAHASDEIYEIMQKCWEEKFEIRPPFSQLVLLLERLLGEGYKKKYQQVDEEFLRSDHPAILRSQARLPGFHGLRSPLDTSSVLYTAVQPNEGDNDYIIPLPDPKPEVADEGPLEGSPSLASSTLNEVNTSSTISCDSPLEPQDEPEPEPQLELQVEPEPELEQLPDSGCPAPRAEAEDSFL
Chain of UniProt P50750 (whole entry, looked up): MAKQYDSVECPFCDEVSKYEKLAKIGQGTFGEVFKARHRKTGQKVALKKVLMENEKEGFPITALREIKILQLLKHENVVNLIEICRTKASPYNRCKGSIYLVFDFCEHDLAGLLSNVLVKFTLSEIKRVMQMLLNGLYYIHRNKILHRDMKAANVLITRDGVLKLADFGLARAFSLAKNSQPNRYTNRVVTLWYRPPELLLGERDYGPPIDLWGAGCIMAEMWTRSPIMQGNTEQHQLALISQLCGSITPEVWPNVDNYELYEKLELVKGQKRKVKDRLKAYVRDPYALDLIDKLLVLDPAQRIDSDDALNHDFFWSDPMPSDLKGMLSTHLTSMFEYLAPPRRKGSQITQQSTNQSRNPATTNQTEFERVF
Chain of UniProt Q15759 (whole entry, looked up): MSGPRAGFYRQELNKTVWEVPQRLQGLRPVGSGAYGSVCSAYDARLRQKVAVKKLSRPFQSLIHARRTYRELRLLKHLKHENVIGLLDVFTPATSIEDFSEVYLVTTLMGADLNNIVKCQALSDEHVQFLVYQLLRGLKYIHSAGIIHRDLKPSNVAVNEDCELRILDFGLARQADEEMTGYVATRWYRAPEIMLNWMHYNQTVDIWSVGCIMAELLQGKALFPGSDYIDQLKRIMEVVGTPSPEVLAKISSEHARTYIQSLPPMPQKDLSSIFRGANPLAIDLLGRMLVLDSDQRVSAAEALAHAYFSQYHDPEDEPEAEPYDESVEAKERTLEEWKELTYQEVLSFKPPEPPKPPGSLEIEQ
Chain of UniProt Q96L34 (whole entry, looked up): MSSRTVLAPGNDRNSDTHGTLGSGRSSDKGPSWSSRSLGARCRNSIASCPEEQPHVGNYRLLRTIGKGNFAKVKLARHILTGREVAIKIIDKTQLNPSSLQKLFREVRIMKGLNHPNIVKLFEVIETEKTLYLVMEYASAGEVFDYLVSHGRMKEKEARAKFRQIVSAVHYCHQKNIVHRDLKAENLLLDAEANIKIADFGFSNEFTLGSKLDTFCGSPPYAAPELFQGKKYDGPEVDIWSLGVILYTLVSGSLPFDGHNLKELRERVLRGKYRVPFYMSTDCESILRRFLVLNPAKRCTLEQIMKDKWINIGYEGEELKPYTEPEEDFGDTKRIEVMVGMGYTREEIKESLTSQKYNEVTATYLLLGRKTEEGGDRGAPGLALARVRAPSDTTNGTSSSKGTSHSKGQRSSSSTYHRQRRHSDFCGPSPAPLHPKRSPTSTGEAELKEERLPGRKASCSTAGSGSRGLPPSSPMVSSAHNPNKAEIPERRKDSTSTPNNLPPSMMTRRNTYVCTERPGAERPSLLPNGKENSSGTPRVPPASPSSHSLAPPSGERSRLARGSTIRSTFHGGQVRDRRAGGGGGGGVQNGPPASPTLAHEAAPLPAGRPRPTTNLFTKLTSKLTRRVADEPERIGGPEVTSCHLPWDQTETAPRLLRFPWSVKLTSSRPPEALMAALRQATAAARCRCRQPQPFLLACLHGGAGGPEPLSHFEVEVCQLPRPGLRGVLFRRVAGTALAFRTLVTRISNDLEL
Chain of UniProt O14965 (whole entry, looked up): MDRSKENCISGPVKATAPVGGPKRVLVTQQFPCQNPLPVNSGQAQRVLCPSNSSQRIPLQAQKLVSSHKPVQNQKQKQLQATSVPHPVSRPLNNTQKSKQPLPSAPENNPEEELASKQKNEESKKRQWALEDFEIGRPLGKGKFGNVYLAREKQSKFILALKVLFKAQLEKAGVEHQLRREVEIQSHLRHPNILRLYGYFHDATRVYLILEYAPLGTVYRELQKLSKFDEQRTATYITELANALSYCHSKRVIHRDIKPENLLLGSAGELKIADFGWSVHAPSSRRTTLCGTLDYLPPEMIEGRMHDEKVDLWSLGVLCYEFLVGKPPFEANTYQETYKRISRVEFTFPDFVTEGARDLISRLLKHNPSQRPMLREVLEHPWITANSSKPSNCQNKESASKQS
Chain of UniProt O75914 (whole entry, looked up): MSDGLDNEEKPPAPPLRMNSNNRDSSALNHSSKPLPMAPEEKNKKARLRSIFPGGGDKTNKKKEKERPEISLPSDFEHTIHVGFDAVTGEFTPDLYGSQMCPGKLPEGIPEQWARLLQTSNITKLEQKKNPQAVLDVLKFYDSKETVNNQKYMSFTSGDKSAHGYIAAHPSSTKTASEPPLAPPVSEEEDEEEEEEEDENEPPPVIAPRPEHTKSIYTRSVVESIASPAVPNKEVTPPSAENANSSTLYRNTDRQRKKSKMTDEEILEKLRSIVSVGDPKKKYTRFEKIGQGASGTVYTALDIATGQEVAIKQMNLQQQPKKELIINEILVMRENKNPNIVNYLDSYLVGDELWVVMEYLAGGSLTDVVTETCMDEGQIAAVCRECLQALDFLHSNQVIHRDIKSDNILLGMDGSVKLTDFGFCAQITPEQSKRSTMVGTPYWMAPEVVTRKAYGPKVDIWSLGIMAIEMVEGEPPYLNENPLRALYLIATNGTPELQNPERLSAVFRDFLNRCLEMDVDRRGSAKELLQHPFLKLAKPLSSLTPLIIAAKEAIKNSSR

Block 1
SMILES: CCN(CC)C(=O)c1ccc(Nc2nc(OCC3CCCCC3)c3[nH]cnc3n2)cc1
Observed: enzyme activity
Action: inhibitor
Concentration: 0.5 µM
Reference: control
| target | remaining activity |
| --- | --- |
| MAPK11 (Homo sapiens, UniProt Q15759) | 85.5% |
| CLK4 (Homo sapiens, UniProt Q9HAZ1) | 44.2% |
| PAK3 (Homo sapiens, UniProt O75914) | 87.7% |
| Cyclin-dependent kinase 9, with cyclin K (CDK9, Homo sapiens, UniProt P50750) | 72.6% |
| MARK4 (Homo sapiens, UniProt Q96L34) | 93.8% |

Block 2
SMILES: O=C(NC[C@@H]1[C@H]2CN(C(=O)OCc3cc(C(F)(F)F)cc(C(F)(F)F)c3)C[C@@H]12)c1ccc2[nH]nnc2c1
Observed: cell-free assay
Method: competition with immobilised ligand
Concentration: 1 µM
| target | remaining binding |
| --- | --- |
| EGFR (Homo sapiens, UniProt P00533, A750P/del747-749) | 89% |
| CLK2 (Homo sapiens, UniProt P49760) | 86% |
| ROCK2 (Homo sapiens, UniProt O75116) | 90% |
| Aurora kinase A (AURKA, Homo sapiens, UniProt O14965) | 93% |
| PDGFRB (Homo sapiens, UniProt P09619) | 90% |
| VRK2 (Homo sapiens, UniProt Q86Y07) | 100% |
| FLT3 (Homo sapiens, UniProt P36888) | 93% |
| MAPKAPK2 (Homo sapiens, UniProt P49137) | 100% |

Block 3
Target: RING finger protein unkempt homolog, zinc fingers 1-6, GST-SBP tag (UNK, Homo sapiens, UniProt Q9C0B0, residues 30-357)
Chain of UniProt Q9C0B0 (30-357, looked up): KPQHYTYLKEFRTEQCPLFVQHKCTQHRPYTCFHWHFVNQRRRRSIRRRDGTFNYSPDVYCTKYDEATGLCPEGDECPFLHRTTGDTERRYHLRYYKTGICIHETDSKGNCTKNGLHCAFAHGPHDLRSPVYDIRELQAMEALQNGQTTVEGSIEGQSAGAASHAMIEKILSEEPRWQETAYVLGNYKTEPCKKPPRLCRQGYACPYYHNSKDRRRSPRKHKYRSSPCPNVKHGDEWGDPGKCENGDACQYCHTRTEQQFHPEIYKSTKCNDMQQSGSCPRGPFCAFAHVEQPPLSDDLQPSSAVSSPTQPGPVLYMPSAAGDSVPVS
Method: RNA Bind-n-Seq
Form: RNA
Medium: in vitro
Concentration: not given
Setting: RNA with constant flanks, ends assumed
Reference: input RNA pool
Reading: higher = stronger binding
Constant ends, left off below: GGGAGUUCUACAGUCCGACGAUC … CAACAGAGGAUUGAGCAUCA
| Oligonucleotide | bound/input enrichment |
| --- | --- |
| GUGCUAGAAAAUAAGGUCGUCUGGGAAAAGGACUGGAGACACAAGCGCAUCCAACCCCGGCCGCAAACUGAUGACUUUUCCGUGCUGAUUUCUUUCAACCUCGGUAUUUUCCCUUGGAUA | 0.2 ratio |
| AUCACUCUAAUUAAUUGUAAUCUGAAUAAAGUGUAACAAUUGUGUAGCCUUUUUGUAUAAAACCGACAAAUAGAAAAUGGUCCAAUUAGUUUCCUUUUUAAUAUGCUUAAAAUAAGCAGG | 4.74 ratio |
| UUAGAUUCUGGAAAAUUUCGAGUUUUAGGAUGCAUCUUGUCUGAAUUGAAACAGAAGGGUGACCGAGUUGUGUUAUUUAGCCAAUUUACCAUGAUGCUGGAUAUCUUAGAGGUUCUAUUA | 1.01 ratio |
| UGAGACUGUAGUUGGGUGUCCCGGGUGCCCAUGGACUGCUUGAUGCUGCUUAACUCUUCAUUCCGAUAACUUUCUAGUGACAGCUUCUUCCAGUGGUGACAAAAUAGUGGUGUCAAGUUG | 0.441 ratio |
| GACUGUUCAAGCAAAAAAGGUAACUAACUGCUUCAUCUCCUUUUGCGCUUAUUUGGAAAUUUCCGUUAUAGUGUUUAACUGGCAUGGAUUAAUAGAGUUGGAGUUUUAUUUUUAAGAAAA | 5.58 ratio |
| AUUGUGGAGUAUCAGAACAAGGGCCGCGGGAACGAGUGCGUGCAGUACCAGCAUGUGUUACACCGAAAUCUCAUUUAUUUGGCUACCAUUGCAGAUGCCAGUCCAACCAGCACUUCAAAA | 0.204 ratio |
| UUUCUUUCUUUUUUUUUUUUUUUUGAGAAGUCACCUGUUUUCCUUUUACAGGUGACUGAUUACCGUAUUGGCUUUCAAGAUGUUCCUCAGGCUGGGCGUGGGGGCUCACGCCUUUAAUGC | 0.721 ratio |
| AGAACAGGUUUCUCUCUGUCCUUGACUCUUGGGUCUGUGGGCCAUGGCAUGAGUGUUUUCCCGCCGCCGAUUGGAGGGAAAGCUUUGUGACACUUAGUACUGUGUUUUUAAGAAGAAAUA | 1.09 ratio |

Block 4
Target: ABI1, truncated, D143A, DHFR fusion (Arabidopsis thaliana, UniProt P49597)
Method: DHFR PCA, dose-response
Medium: yeast
Setting: Hill fit, not affinity, not high confidence
Together with: (+)-ABA, dose series
Reading: lower = more sensitive
Starting sequence: PYL1, truncated, DHFR fusion (Arabidopsis thaliana, UniProt Q8VZS8); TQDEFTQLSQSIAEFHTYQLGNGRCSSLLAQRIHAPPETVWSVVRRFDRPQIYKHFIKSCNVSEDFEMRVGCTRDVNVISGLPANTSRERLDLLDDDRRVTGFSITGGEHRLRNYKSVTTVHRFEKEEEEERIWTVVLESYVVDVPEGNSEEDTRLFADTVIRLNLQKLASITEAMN
| Change | ABA EC50 [µM] |
| --- | --- |
| I162Y | 12.5 |
| V43G | 1020 |
| L29P | 0.613 |
| I162E | 3.83 |
| D153W | 1190 |
| V44E | 621 |
| R74T | 38.9 |
| R45L | 1050 |

Repeated from above (block 1):
| target | remaining activity |
| --- | --- |
| CLK4 (Homo sapiens, UniProt Q9HAZ1) | 44.2% |
| PAK3 (Homo sapiens, UniProt O75914) | 87.7% |
| Cyclin-dependent kinase 9, with cyclin K (CDK9, Homo sapiens, UniProt P50750) | 72.6% |
| MARK4 (Homo sapiens, UniProt Q96L34) | 93.8% |
